Published values of several laboratories.
± marks the error that the study gave.
Matrix: plasma

`O[C@H]1CCCN[C@@H]1CCCn1cnc2c(Cl)c(Cl)ccc21` has a Cmax of 124 ng/mL (human; oral, 100 mg single dose, capsule, geometric mean).
`CC(C)C[C@H](CN)CC(=O)O` gave a Cmax of 3320 ng/mL (human; oral, 150 mg, median).
For `COc1ccsc1CNCC[C@@]1(c2ccccn2)CCOC2(CCCC2)C1`, the Cmax was 8.79 ng/mL (healthy human, normal renal function; intravenous, 1 mg single dose, geometric mean).
`COc1ccc(C[C@@H]2NC(=O)[C@H]([C@@H](C)O)NC(=O)[C@@H]3[C@@H]4CCN3C(=O)[C@@H]3Cc5cn(c6ccc(F)cc56)CCCCCCN(Cc5ccc(cc5)CCNC(=O)[C@]5(C)CCCN5C2=O)C(=O)CCC(=O)N[C@@H](C)C(=O)N[C@H](CNC(=O)CCCCC[N+](C)(C)C)C(=O)N[C@@H](Cc2cccc(c2)CNC(=O)CO4)C(=O)N3)cc1` has a Cmax of 10.6 nM (healthy fasted humans; oral, 10 mg once daily, day 14, geometric mean, with: sodium caprate 360 mg).
`Cc1cnc(C(=O)N[C@H]2CCCCC/C=C\[C@@H]3C[C@@]3(C(=O)NS(=O)(=O)C3CC3)NC(=O)[C@@H]3C[C@@H](Oc4nc5ccccc5c5ccccc45)CN3C2=O)cn1` gave a Cmax of 2060 ng/mL (healthy human volunteers; oral, dose not given, with: omeprazole plus 2D regimen).
For `O=c1[nH]c(Cc2ccccn2)nc2c1cnn2C1CCOCC1`, the Cmax was 3120 nM (healthy male human; oral, 100 mg, geometric mean).
`COC(=O)N[C@H](C(=O)N1CCC[C@H]1C(=O)Nc1ccc([C@@H]2CC[C@@H](c3ccc(NC(=O)[C@@H]4CCCN4C(=O)[C@@H](NC(=O)OC)C(C)C)cc3)N2c2ccc(C(C)(C)C)cc2)cc1)C(C)C` gave a Cmax of 148 ng/mL (healthy human volunteers; oral, dose not given, alone, digoxin interaction study).
The Cmax of `CC[C@H](C)[C@H](NC(=O)[C@H](CC(C)C)NC(=O)[C@H](Cc1c[nH]c2ccccc12)NC(=O)[C@H](CCC(N)=O)NC(=O)[C@@H](NC(=O)[C@H](Cc1ccccc1)NC(=O)[C@H](C)NC(=O)[C@H](CCCCNC(=O)COCCOCCNC(=O)COCCOCCNC(=O)CC[C@H](NC(=O)CCCCCCCCCCCCCCCCCCC(=O)O)C(=O)O)NC(=O)[C@H](CCC(N)=O)NC(=O)[C@H](C)NC(=O)[C@@H](NC(=O)[C@H](CCCCN)NC(=O)[C@H](CC(=O)O)NC(=O)[C@H](CC(C)C)NC(=O)C(C)(C)NC(=O)[C@@H](NC(=O)[C@H](CO)NC(=O)[C@H](Cc1ccc(O)cc1)NC(=O)[C@H](CC(=O)O)NC(=O)[C@H](CO)NC(=O)[C@@H](NC(=O)[C@H](Cc1ccccc1)NC(=O)[C@@H](NC(=O)CNC(=O)[C@H](CCC(=O)O)NC(=O)C(C)(C)NC(=O)[C@@H](N)Cc1ccc(O)cc1)[C@@H](C)O)[C@@H](C)O)[C@@H](C)CC)[C@@H](C)CC)C(C)C)C(=O)N[C@@H](C)C(=O)NCC(=O)NCC(=O)N1CCC[C@H]1C(=O)N[C@@H](CO)C(=O)N[C@@H](CO)C(=O)NCC(=O)N[C@@H](C)C(=O)N1CCC[C@H]1C(=O)N1CCC[C@H]1C(=O)N1CCC[C@H]1C(=O)N[C@@H](CO)C(N)=O` is reported as 353 ng/mL (human, mild renal impairment; subcutaneous, 5 mg single dose, eGFR 60-89, geometric mean).
`CC(C)c1nc(CN(C)C(=O)N[C@H](C(=O)N[C@@H](Cc2ccccc2)C[C@H](O)[C@H](Cc2ccccc2)NC(=O)OCc2cncs2)C(C)C)cs1` has a Cmax of 2070 ng/mL (healthy human volunteers; oral, dose not given, with: warfarin plus 2D regimen).
For `Oc1ccc2ccc3c4ccccc4cc4ccc1c2c43`, the Cmax was 1.47 ± 0.74 fg BaP equivalents/mL (UPLC-AMS; human; oral, 25 ng of [14C]-BaP).
